Assay results pooled from the literature.
Compare with care: the assays were run in different laboratories. Numbers after ± are the reported error.
Technique: steady-state kinetics
B1: iodotyrosine deiodinase (Haliscomenobacter hydrossis, UniProt F4KU78); chain MKQKPAFIPYAGAQFEPEEMLSKSAEYYQFMDHRRTVREFSNRAIPLEVIENIVMTASTAPSGAHKQPWTFVVVSDPQIKAKIRQAAEKEEFESYNGRMSNEWLEDLQPFGTDWHKPFLEIAPYLIVVFRKAYDVLPDGTQRKNYYVQESVGIACGFLLAAIHQAGLVALTHTPSPMNFLQKILQRPENERPFLLVPVGYPAEGAMVPDLQRKDKAAVMVVY
B2: enzyme (Acetivibrio thermocellus, UniProt A3DJ38); chain MKLTIPELSLVVLIGSSGSGKSTFAKKHFKPTEVISSDFCRGLVSDDENDQTVTGAAFDVLHYIVSKRLQLGKLTVVDATNVQESARKPLIEIAKDYHCFPVAVVFNLPEKVCQERNKNRTDRQVEEYVIRKHTQQLKKSIKGLQREGFRYVYILNSPEEVEEVVFERQPLWNNKKDEHGPFDIIGDIHGCYDELKMLLEKLGYLIEEVEGGVGSGKYRVTHPEGRKVLFLGDLVDRGPKITEVLKLVMGMVKSGIALCVPGNHDVKLLRKLNGRDVQITHGLDRTLEQLAKEPQEFIEEVKAFIDGLVSHYVLDDGKLVVAHAGMKEEFQGRGSGKVREFALYGETTGETDEYGLPVRYDWASDYRGKALVVYGHTPQAEVLKVNNTINIDTGCVFGGKLTAYRYPEREIVDVKALKTYYEPAKPFLPKEDMAERFEARTDNDILDINDVLGKKIITTRLMSSITIHEENSIAALEVMSRFAADPHWLIYLPPTMSPCETSKKEGMLEHPIEAFEYFRTRGVGKVVCEQKHMGSRAVVIVCKDSQVAEKRFGVLDGTAGICYTRTGRHFFDDMQLEAELIDRVRKVLDKSGFWGDFNTDWVCLDCELMPWSAKAQKLLEEQYSAVGISGRVVLDEAVKLLKQASLNKTVSFDVSRQTSGKNADINELLQRFTERSEMMQKYVEAYRKYCWPVNSIDDLKLAPFHILATEGKVHSDKNHIWHMDTIAKYCTQDDSLIMATNHILVDVTDAESVDKGIKWWEDLTASGGEGMVVKPYDFIVKNGRELLQPAVKCRGREYLRIIYGPEYTMDENIERLRNRAVGKKRSLALREFSLGMEALERFVRNEPLYRVHECVFGVLALESEPVDPRL
B3: PhnY E385A (Sinorhizobium meliloti, UniProt Q92UV7); chain MTNAEVTIAVRHEPMRIAGRLVDTDDRVEVRYPWNDTVVGTVPAGRAEHAREAFAIAAAYQPKLTRYERQKILLATAEALAARKEEISDVITLELGISKADSLYEVGRAFDVFTLAGQMCIRDDGEIFSCDLTPHGKARKIFTMREPLTAISAITPFNHPLNMVAHKVAPAIATNNCVVVKPTELTPMTALLLADILYEAGLPPEMLSVVTGWPADIGMEMITNPHVDLVTFTGSVPVGKLIAANAHYKRQVLELGGNDPLIILNDLSDDDLARAADLAVAGATKNSGQRCTAVKRILCQESVADRFVPLVLERAKRLRFGDPMDRSTDLGTVIHEKAAALFEERVMRAAEEGADILYHPGRSGALLPPIVVDRVPHQSDLVLEATFGPIIPIVRVPDDDDATITLSNSTAFGLSSGVCTNDYRRMQKYIAGLKVGTVNIWEVPGYRIEMSPFGGIKDSGNGYKEGVIEAMKSFTNVKTFSLPWP
B4: msrA U16C (Clostridium oremlandii, UniProt A8MI53); chain MDTNQKLSIAVFALGCFWGPDAQFGSIKGVVSTRVGYAGGTTNNPSYYNLGDHSESIEIQYDANVITYGELLNIFWNLHNPVYETTNRQYMSRIFYLDDGQKSEALEMKRQIEAANGEKIYTEIVPLENFYLAEGYHQKYYLQNTTKLYQTLKAIYGGFGNLVRSTLAARMNGYIAGNLSIASLKEEMDLVELPEDQYEKVLSIVEEIK
B5: enzyme (Thermococcus kodakarensis, UniProt Q5JID5); chain MLYVEILGNLPEMARDEVKAMLELGGGEIIGQDYLFLKVDAGEKAFPFLDRLGLAHEYGLLLVEADSVEELLQKAGEVEWPIKGAFKVDTETMANCRHDVLDLPRKLGAVIHAQGFRVNLSKPDTVVRVYCGERLYAGIRLRYFDPKDFEKRKAHHRPFFRPISLHPRVSRALVNLTKATREILDPFMGAGGILIEAGLLGLRVYGVDIRPEMVEGAETNLKHYGVRDYTLKLGDATRLEDLFPDKKFEAVATDPPYGTAATLAGRKRDELYRKALRSIYNVLEDGGRLAIAFPTDFNGKAEAEAVGFRTLGRYYQRVHKSLERYFYVFEK
B6: enzyme (Bacillus pumilus, UniProt A8FFI9); chain EARSIAWSVDEFFKNREGTFVIQEVKEKSPWVYNKKRAKERFAPQSTFKVANALIGLQTGAVRDEYDIKYWDGVKREIDNWNRDHTLGSGMRDSVVWYYQAMARDIGEERMNHWVKAIHYGNKDISGGIDQFWLSSTLRISPIEQVRFLKQLYEETLPFDLKNMRTVKRMMVQEEEKHATLYGKTGSGSDIGWYVGFIKHEHKTYILATNIKGTGIEAKDITYRILKKYHLMEASV
B7: asnB E349A (Escherichia coli, UniProt P22106); chain CSIFGVFDIKTDAVELRKKALELSRLMRHRGPDWSGIYASDNAILAHERLSIVDVNAGAQPLYNQQKTHVLAVNGEIYNHQALRAEYGDRYQFQTGSDCEVILALYQEKGPEFLDDLQGMFAFALYDSEKDAYLIGRDHLGIIPLYMGYDEHGQLYVASEMKALVPVCRTIKEFPAGSYLWSQDGEIRSYYHRDWFDYDAVKDNVTDKNELRQALEDSVKSHLMSDVPYGVLLSGGLDSSIISAITKKYAARRVEDQERSEAWWPQLHSFAVGLPGSPDLKAAQEVANHLGTVHHEIHFTVQEGLDAIRDVIYHIETYDVTTIRASTPMYLMSRKIKAMGIKMVLSGAGSDEVFGGYLYFHKAPNAKELHEETVRKLLALHMYDCARANKAMSAWGVEARVPFLDKKFLDVAMRINPQDKMCGNGKMEKHILRECFEAYLPASVAWRQKEQFSDGVGYSWIDTLKEVAAQQVSDQQLETARFRFPYNTPTSKEAYLYREIFEELFPLPSAAECVPGGPSVACSSAKAIEWDEAFKKMDDPSGRAVGVHQSAYK
B8: enzyme (Thermobifida fusca, UniProt Q47RK4); chain MTDVYILDAVRTPFGRYGGALSGIRPDDLAAHVLRALAERSPGLDPAAVDDVFFGDANGAGEDNRNVARMAALLAGWPTSVPGVTLNRLCGSGMESVIAANRAIAVGDASLAVAGGVESMSRAPWVLPKPAQGFPTGHETLYSTTLGWRMVNPAMPEQWTVSLGESTEQVAATYGISRAEQDAFALRSHERAARAWAEGVFDAEITQIPGAELERDESIRETSAEKLAALKPAFRPDGTITAGNASPLNDGAAALLIGDAAAAERVGREPLARIVSRGVAAVDPDVFGIGPVQAAEIALRRAGIGWDDLSVVELNEAFAAQSLACLKLWPDLDPEIVNPNGGAIAIGHPLGASGARIVGTLAHELHRRGGGWGLAAICIGVGQGLAVVLHR
B9: CstB (Staphylococcus aureus, UniProt G5ELA4); chain MFFKQFYDNHLSQASYLVGCQRTGEAIIIDPVRDLSKYIEVADSEGLTITQATETHIHADFASGIRDVAKRLNANIYVSGEGEDALGYKNMPSKTQFVKHGDIIQVGNVKLEVLHTPGHTPESISFLLTDLGGGSSVPMGLFSGDFIFVGDIGRPDLLEKSVQIKGSTEISAKQMYESVQNIKNLPDYVQIWPGHGAGSPCGKALGAIPISTIGYEKINNWAFNEIDETKFIESLTSNQPAPPHHFAQMKQVNQFGMNLYQSYDVYPSLDNKRVAFDLRSKEAFHGGHTKGTINIPYNKNFINQIGWYLDFEKDIDLIGDKSTVEKAKHTLQLIGFDKVAGYRLPKSGISTQSVHSADMTGKEEHVLDVRNDEEWNNGHLDQAVNIPHGKLLNENIPFNKEDKIYVHCQSGVRSSIAVGILESKGFENVVNIREGYQDFPESLK
B10: cyc1 V329M (Streptomyces coelicolor, UniProt Q9K499); chain MHAFPHGTTATPTAIAVPPSLRLPVIEAAFPRQLHPYWPKLQETTRTWLLEKRLMPADKVEEYADGLCYTDLMAGYYLGAPDEVLQAIADYSAWFFVWDDRHDRDIVHGRAGAWRRLRGLLHTALDSPGDHLHHEDTLVAGFADSVRRLYAFLPATWNARFARHFHTVIEAYDREFHNRTRGIVPGVEEYLELRRLTFAHWIWTDLLEPSSGCELPDAVRKHPAYRRAALLSQEFAAWYNDLCSLPKEIAGDEVHNLGISLITHHSLTLEEAIGEVRRRVEECITEFLAVERDALRFADELADGTVRGKELSGAVRANVGNMRNWFSSMYWFHHESGRYMVDSWDDRSTPPYVNNEAAGEK
B11: HCT R356D (Coleus scutellarioides, UniProt E8ZAP2); chain MKIHVRDSTLVRPSAATPAVSLWNSNVDLVVPNFHTPSVYFYRPSGADNFFDTAVMKAALGRALVSFYPMAGRLKRDEDGRVEIDCNAEGVLFVEAESDGTVDDYGDFAPSLELRRLIPAVDYSQGISAYPLLVLQVTFFKCGGVSLGVGMQHHAADGFSGLHFINTWSDMARGLDITLPPFIDRTLLSARDPPQPQFKHVEYQPPPAMKTYEPAETVVSIFKLTKDQLTTLKAKSKEDGNTTTYSSYEMLSGHVWRCTCLARGLPEEQETKLYIATDGRSRLQPQLPPGYFGNVIFTATPLAVAGDLGSKPVWYAASKIHDALARMDNDYLRSALDFLELQPDLKALVRGAHTFDCPNLGITSWVRLPIHDADFGWGRPIFMGPGGIAYEGLSFVLPSPTNDGSLSVAISLQAEHMKLFEKLLYQI
B12: enzyme (Daphnia magna, UniProt A0A0A7CK57); chain MVDAAVAEKLEAGFQKLQEATNCKSLLKKHLTREIFDKIKDLKTSFGSTLLDVIQSGVENLDSGFGVYAPDAEAYSVFNDLFEPMICDYHTGFKPGDAHPPRDFGDLETFGNLDPEGAFIVSTRVRCGRSLAGYAFNPCLTEANYKEMEEKVVASLSSLEGELKGTYYPLTGMTKEVQTQLIQDRFLFKEGDRFLQAANACRYWPTGRGIYHNDAKTFLVWCNEEDHLRIISMQKGGDLKAVYARLVNAINEIEKRIPFSHHDKYGFLTFCPTNLGTTIRASVHIALPKLAADLAKLEEAAGKFNLQVRGTAGEHTEAEGGVYDISNKRRMGLTEYQAVKEMYDGLQELIRMEKEAA

Substance	substrate	pH	temperature	notes	added	kcat
B1 (iodotyrosine deiodinase)	N#Cc1cc(C[C@H](N)C(=O)O)cc(I)c1O	pH 7.4	25 °C			0.04 ± 0.008 s⁻¹
B2 (enzyme)	Nc1ncnc2c1ncn2[C@@H]1O[C@H](CO)[C@H]2OP(=O)(O)O[C@H]21	pH 7.5	45 °C			8.93 ± 0.4 s⁻¹
B3 (PhnY E385A)	O=CCP(=O)(O)O	pH 7.5	30 °C	substrate inhibition	NAD+	0.19 ± 0.03 s⁻¹
B4 (msrA U16C)	CN(C)c1ccc(N=Nc2ccc(S(=O)(=O)N[C@@H](CC[S@+](C)[O-])C(=O)O)cc2)cc1	pH 7.5	37 °C	50 mM NaCl, Km above tested range	20 mM DTT reductant	3.8 ± 0.3 s⁻¹
B5 (enzyme)	C[S+](CC[C@H](N)C(=O)O)C[C@H]1O[C@@H](n2cnc3c(N)ncnc32)[C@H](O)[C@@H]1O	pH 7.5	50 °C	apparent		0.00817 ± 0.00133 s⁻¹
B6 (enzyme)	CCN1CCN(C(=O)N[C@@H](C(=O)N[C@@H]2C(=O)N3[C@@H]2SC(C)(C)[C@@H]3C(=O)O)c2ccccc2)C(=O)C1=O	pH 7				60 ± 2 s⁻¹
B7 (asnB E349A)	NC(=O)CC[C@H](N)C(=O)O	pH 8	37 °C	100 mM NaCl, glutaminase site	MgCl2; no ATP	6.37 ± 0.04 s⁻¹
B8 (enzyme)	CC(=O)SCCNC(=O)CCNC(=O)[C@H](O)C(C)(C)COP(=O)(O)OP(=O)(O)OC[C@H]1O[C@@H](n2cnc3c(N)ncnc32)[C@H](O)[C@@H]1OP(=O)(O)O	pH 7.4	37 °C			0.0035 ± 6.5e-05 s⁻¹
B9 (CstB)	CC(C)(COP(=O)(O)OP(=O)(O)OC[C@H]1O[C@@H](n2cnc3c(N)ncnc32)[C@H](O)[C@@H]1OP(=O)(O)O)[C@@H](O)C(=O)NCCC(=O)NCCSS	pH 6	25 °C	NaBr 100 mM, air-saturated	Fe(II), O2	19.3 ± 2.2 s⁻¹
B10 (cyc1 V329M)	CC(C)=CCC/C(C)=C/CC/C(C)=C/CO[P@@](=O)(O)OP(=O)(O)O	pH 6.5	30 °C		MgCl2 10 mM	0.00064 ± 4e-06 s⁻¹
B11 (HCT R356D)	NCCc1ccc(O)c(O)c1	pH 8		pseudo-first-order	p-coumaroyl CoA	1.44 ± 0.05 s⁻¹
enzyme (Brachypodium distachyon, UniProt I1HY48)	NC(=O)c1ccc[n+]([C@@H]2O[C@H](COP(=O)(O)OP(=O)(O)OC[C@H]3O[C@@H](n4cnc5c(N)ncnc54)[C@H](OP(=O)(O)O)[C@@H]3O)[C@@H](O)[C@H]2O)c1	pH 8.8	23 °C	cofactor varied		9.87 s⁻¹
B12 (enzyme)	N=C(N)NCCC[C@H](N)C(=O)O	pH 8.5				18.6 ± 0.6 s⁻¹

Excerpt of the above:
Substance	substrate	pH	temperature	notes	added	kcat
B1 (iodotyrosine deiodinase)	N#Cc1cc(C[C@H](N)C(=O)O)cc(I)c1O	pH 7.4	25 °C			0.04 ± 0.008 s⁻¹
